# Measurements collected from several papers.
# Parts stem from different laboratories: compare values within a part only.
# Sequence of UniProt Q07912 (whole entry, looked up): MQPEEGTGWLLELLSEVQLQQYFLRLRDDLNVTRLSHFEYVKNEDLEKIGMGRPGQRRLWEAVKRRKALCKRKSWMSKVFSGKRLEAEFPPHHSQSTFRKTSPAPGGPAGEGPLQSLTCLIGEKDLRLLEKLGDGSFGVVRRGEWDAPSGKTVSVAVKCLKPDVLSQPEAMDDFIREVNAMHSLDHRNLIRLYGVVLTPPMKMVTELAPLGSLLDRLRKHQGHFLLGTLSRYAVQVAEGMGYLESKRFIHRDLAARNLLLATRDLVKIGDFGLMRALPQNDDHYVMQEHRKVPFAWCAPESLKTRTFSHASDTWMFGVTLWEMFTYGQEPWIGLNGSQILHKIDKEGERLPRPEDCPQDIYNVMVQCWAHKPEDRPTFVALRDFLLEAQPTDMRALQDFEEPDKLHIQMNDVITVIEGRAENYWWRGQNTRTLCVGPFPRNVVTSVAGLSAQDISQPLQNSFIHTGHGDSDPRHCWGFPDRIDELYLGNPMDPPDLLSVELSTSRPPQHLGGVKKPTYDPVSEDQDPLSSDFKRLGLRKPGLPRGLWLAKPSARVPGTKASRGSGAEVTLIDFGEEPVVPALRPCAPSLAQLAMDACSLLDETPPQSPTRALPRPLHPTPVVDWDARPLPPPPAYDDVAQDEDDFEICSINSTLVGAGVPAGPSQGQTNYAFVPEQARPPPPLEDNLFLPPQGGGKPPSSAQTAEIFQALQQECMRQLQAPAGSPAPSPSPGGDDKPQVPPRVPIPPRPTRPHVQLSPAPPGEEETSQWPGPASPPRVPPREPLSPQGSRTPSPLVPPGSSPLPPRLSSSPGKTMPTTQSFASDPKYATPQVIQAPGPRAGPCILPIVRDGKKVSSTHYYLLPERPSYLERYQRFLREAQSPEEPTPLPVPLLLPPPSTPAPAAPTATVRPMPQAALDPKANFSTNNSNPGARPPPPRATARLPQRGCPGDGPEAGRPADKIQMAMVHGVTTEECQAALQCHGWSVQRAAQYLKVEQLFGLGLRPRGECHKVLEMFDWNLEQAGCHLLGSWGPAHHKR

# Study 1 — technique: RNA Bind-n-Seq; form: RNA; medium: in vitro; tested at: 1 µM; setting: whole 134-nt RNA, ends assumed; added: 150 mM KCl; baseline: input library; direction: higher = stronger binding
# Target: Ras GTPase-activating protein-binding protein 1, C-terminal RGG region (G3BP1, Homo sapiens, UniProt Q13283)
# Sequence of UniProt Q13283 (whole entry, looked up): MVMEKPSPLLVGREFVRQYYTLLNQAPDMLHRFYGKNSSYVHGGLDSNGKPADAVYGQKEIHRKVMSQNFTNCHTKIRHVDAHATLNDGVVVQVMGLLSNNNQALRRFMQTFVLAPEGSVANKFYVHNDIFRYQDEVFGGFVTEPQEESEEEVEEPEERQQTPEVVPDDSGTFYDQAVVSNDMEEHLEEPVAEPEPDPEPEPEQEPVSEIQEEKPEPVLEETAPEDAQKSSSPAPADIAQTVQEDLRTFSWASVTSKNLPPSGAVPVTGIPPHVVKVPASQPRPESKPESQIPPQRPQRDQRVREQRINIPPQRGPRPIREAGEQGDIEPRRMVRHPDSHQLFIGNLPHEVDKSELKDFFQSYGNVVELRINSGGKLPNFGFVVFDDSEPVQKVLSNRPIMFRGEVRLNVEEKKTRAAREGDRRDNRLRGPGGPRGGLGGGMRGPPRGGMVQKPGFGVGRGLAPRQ
# Constant ends, left off below: GGGAGUUCUACAGUCCGACGAUC … UGGAAUUCUCGGGUGUCAAGG
Oligonucleotide,log2 enrichment
UGGGAGGUGGAUUUUGUUUAUUUUUUUAGCUCAUUUCCAGGGGUGGGAAUUUUUUUUUAAUAUGUGUCAAGAAUAAAGUUGUUUUUGAAA,2.69
GUCCUGUGCUACACAUCGUAUGUACCGAAUCGGGAAAAGGGGAAAAGGGGAAAAGGGGAAAGUAUUAUGUUACGCCGUUCGGAUCUGCAC,0.442
CACAGACAACACGCACCCACACAGACACAGAGGGAAGGGGUUGGGAUGGGGACAGGGCGCACAGCAGGGCGGGGUAGGACCCCAGCCCCU,-0.262
AGUCCUGUGCUACACAUCGUAUGUACCGAAUCGGGUUUGGGUUUGGGUUUUUUUGGGAAAGUAUUAUGUUACGCCGUUCGGAUCUGCACU,1.05
CACAGACAACACGCACCCACACAGACACAGAGCGAAGGGGUUGGGAUGGGGACAGGGUGCACAGCAGGGCGGGGUAGGACCCCAGCCCCU,-0.237
UCCUCAAGUCCUGUGCUACACAUCGUAUGUACCGAAUCGGGUGGGUGGUGGAAAGUAUUAUGUUACGCCGUUCGGAUCUGCACUUCCAGC,-0.0189
GUCCUGUGCUACACAUCGUAUGUACCGAAUCGGGGCCCCGGGGCCCCGGGGCCCCGGGGAAAGUAUUAUGUUACGCCGUUCGGAUCUGCA,-1.44
UAACUUUAGAGGAGGAUCUGAUGGAUAUGGCAGUGGACGUGGAUUUGGGGAUGGCUAUAAAGGGUAUGGAGGAGGACCUGGAGGUGGCAA,-1.16

# Study 2 — technique: aptamer microarray, sandwich; form: DNA with 2'F-ANA; medium: in vitro; tested at: 200 nM; added: Cy3 exosite-II aptamer, 400 nM; direction: higher = stronger binding; oligonucleotide: GGTTGGTGTGGTTGG
# Target: Prothrombin, mature alpha-thrombin (F2, Homo sapiens, UniProt P00734)
# Setting: whole 15-mer aptamer, many near background
Modification,mean fluorescence intensity [a.u.]
2'F-ANA at 7 9 10 12 13,223
2'F-ANA at 1 2 4 5 8 9 10,45.8
2'F-ANA at 2 4 5 7 9 10 12 13 14,49.2
2'F-ANA at 2 4 5 6 10 12 14,45.5
2'F-ANA at 1 4 5 6 7 9 10 11 13 14 15,71.1
2'F-ANA at 4 5 7 8 10 11 12 13 14,56
2'F-ANA at 1 5 6 7 8 10 11 13,49.4
2'F-ANA at 4 5 9 11 12 15,91.8

# Study 3 — organism: Saccharomyces cerevisiae; observed: binding; technique: yeast competitive growth sequencing; form: peptide; strain: cyclin A1-Cln2 strain; medium: peptide tiling library; setting: pooled screen; direction: direction not given
Molecule,enrichment score
VRDLSYRLVFLACCVA,-0.872
VKTKKRLNFDDK,-0.695
RRRIKLPESDSSED,1.69
IPMIAKNLMCELDE,-0.657
NRLLKLFTRCLTPLVP,-2.5
AIRKMREDRWAVIAKM,-2.6
NARRSLNFGGSTGT,-0.502
EAAPPTQEAQGETEPT,0.434

# Other studies, line by line
SMILES,target,test,setting,how to read,endpoint,result
O=c1cc(-c2cccc3c2Sc2ccccc2S3)oc(N2CCOCC2)c1,"Activated CDC42 kinase 1 (TNK2, Homo sapiens, UniProt Q07912)","enzyme activity, inhibitor",0.5 µM,baseline: control,remaining activity,95.7%

# Some of these lines once more (study 1):
Oligonucleotide,log2 enrichment
CACAGACAACACGCACCCACACAGACACAGAGGGAAGGGGUUGGGAUGGGGACAGGGCGCACAGCAGGGCGGGGUAGGACCCCAGCCCCU,-0.262
GUCCUGUGCUACACAUCGUAUGUACCGAAUCGGGAAAAGGGGAAAAGGGGAAAAGGGGAAAGUAUUAUGUUACGCCGUUCGGAUCUGCAC,0.442
GUCCUGUGCUACACAUCGUAUGUACCGAAUCGGGGCCCCGGGGCCCCGGGGCCCCGGGGAAAGUAUUAUGUUACGCCGUUCGGAUCUGCA,-1.44
CACAGACAACACGCACCCACACAGACACAGAGCGAAGGGGUUGGGAUGGGGACAGGGUGCACAGCAGGGCGGGGUAGGACCCCAGCCCCU,-0.237
